{"data": "Measured values of several laboratories", "note": "A part holds a random share of what one study measured. Positions count from the first letter of the parent shown."}
{"data": "Study 1", "target": "ABI1, truncated, D143A, DHFR fusion (Arabidopsis thaliana)", "method": "DHFR PCA, deep sequencing", "sample": "yeast", "setting": "methotrexate growth selection, single substitutions", "added": "(+)-ABA 17 µM", "relative to": "wild-type fitted maximum", "reading": "higher = stronger binding", "starting sequence": "PYL1, truncated, DHFR fusion (Arabidopsis thaliana); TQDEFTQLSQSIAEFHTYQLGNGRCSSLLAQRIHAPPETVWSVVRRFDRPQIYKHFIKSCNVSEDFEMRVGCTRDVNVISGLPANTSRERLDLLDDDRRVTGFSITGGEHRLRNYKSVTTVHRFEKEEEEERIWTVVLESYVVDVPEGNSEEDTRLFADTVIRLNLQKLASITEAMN"}
{"Change": "E147Y", "relative binding score [%]": 76}
{"Change": "C60F", "relative binding score [%]": 6.47}
{"Change": "K168M", "relative binding score [%]": 64.2}
{"Change": "S80C", "relative binding score [%]": 8.53}
{"Change": "C25F", "relative binding score [%]": 23.7}
{"Change": "D92Q", "relative binding score [%]": 18.4}
{"Change": "G21T", "relative binding score [%]": 80.1}
{"Change": "G108D", "relative binding score [%]": 5.35}
{"Change": "I33F", "relative binding score [%]": -5.87}
{"Change": "D75H", "relative binding score [%]": 84.3}
{"Change": "R123Y", "relative binding score [%]": 69.1}
{"Change": "K116C", "relative binding score [%]": 46.8}
{"Change": "S87T", "relative binding score [%]": 32.2}
{"Change": "Q31W", "relative binding score [%]": 34.1}
{"Change": "E152A", "relative binding score [%]": 83.7}
{"data": "Study 2", "target": "CCNF, cyclin fold, Cln2 fusion (human)", "method": "yeast growth competition, sequencing", "sample": "yeast", "setting": "strong parent motif", "relative to": "not given", "reading": "higher = stronger binding", "starting sequence": "BRCA2 docking peptide (human); CKKRRALDFLSRL"}
{"Change": "K2A", "normalised enrichment score": 2.36}
{"Change": "R4A", "normalised enrichment score": 2.5}
{"Change": "L7A", "normalised enrichment score": 2.69}
{"Change": "C1A", "normalised enrichment score": 1.85}
{"Change": "R5K F9L", "normalised enrichment score": 1.39}
{"Change": "R12A", "normalised enrichment score": 4.01}
{"Change": "L13A", "normalised enrichment score": 2.84}
{"data": "Study 3", "target": "Interferon regulatory factor 5, full length, phosphomimetic (IRF5, Homo sapiens, UniProt Q13568-2, residues 1-514, S451D/S453D/S456D/S462D)", "method": "protein-binding microarray", "form": "double-stranded DNA, one strand shown", "sample": "in vitro", "concentration": "940 nM top", "setting": "60-bp whole probe", "added": "salmon DNA 0.4 mg/ml", "relative to": "random background probes", "reading": "higher = stronger binding", "shared flanks, not repeated": "GCCTAGCAC … GTCTTGATTCGCTTGACGCTGCTG"}
{"Strand": "TTAGATATCAGACCGGATTAGTGCTAG", "fitted relative affinity": "-0.48 z-score"}
{"Strand": "TTAGATCTCAGTCTTGATTAGTGCTAG", "fitted relative affinity": "0.256 z-score"}
{"Strand": "TTAGGTATCCTTTTGCTTTAGTGCTAG", "fitted relative affinity": "0.718 z-score"}
{"Strand": "CACTCTCTACATGTGTTTAAGTGCTAG", "fitted relative affinity": "2.08 z-score"}
{"Strand": "TTTGGTATCCTACTGCTTTAGTGCTAG", "fitted relative affinity": "0.45 z-score"}
{"Strand": "GACGAACTGAGTCACGAGACGTGCTAG", "fitted relative affinity": "-0.262 z-score"}
{"Strand": "TTAGGTTTACTACTGCTTTAGTGCTAG", "fitted relative affinity": "-0.138 z-score"}
{"Strand": "CGCAGGGCAGGCTTCGGCCGGTGCTAG", "fitted relative affinity": "-1.25 z-score"}
{"Strand": "CTTTTTTTCAAGAAACAGTTCGTGCTA", "fitted relative affinity": "0.176 z-score"}
{"Strand": "GACGGTTTCGGGCTTCGGGACGTGCTA", "fitted relative affinity": "6.5 z-score"}
{"Strand": "GACGGTCTCGGTCTCGCGACGTGCTAG", "fitted relative affinity": "4.21 z-score"}
{"Strand": "GACGGTATCGGGTTCCGGGACGTGCTA", "fitted relative affinity": "5 z-score"}
{"Strand": "TCATTTGACTCTTTCTGACTGTGCTAG", "fitted relative affinity": "0.901 z-score"}
{"Strand": "TTAGGTTTCGCCTATCGGTTAGTGCTA", "fitted relative affinity": "8.43 z-score"}
{"Strand": "TTAGGACTGTGTCTCGGTTAGTGCTAG", "fitted relative affinity": "1.14 z-score"}
{"Strand": "AACGGACTGGACTTTCGGGACGTGCTA", "fitted relative affinity": "0.0861 z-score"}
{"data": "Study 4", "target": "RNA binding protein fox-1 homolog 2, RRM domain, GST-SBP tag (RBFOX2, Homo sapiens, UniProt O43251-10, residues 100-194)", "method": "RNA Bind-n-Seq", "form": "RNA", "sample": "in vitro", "concentration": "365 nM", "setting": "natural RNA segment, single round, ends assumed", "relative to": "no-protein control", "reading": "higher = stronger binding", "shared flanks, not repeated": "GGGAGUUCUACAGUCCGACGAUC … UGGAAUUCUCGGGUGCCAA", "Target sequence (chain)": "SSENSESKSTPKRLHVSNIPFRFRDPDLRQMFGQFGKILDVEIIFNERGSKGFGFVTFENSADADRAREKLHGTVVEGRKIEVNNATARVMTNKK"}
{"Strand": "AAAACUUUUACAGAUUUUUGCACAAAAAGUGGACAUUUAUUUUUCCUGUUUUUAAAACAGUUUUUCAAGAUAUUAUUGCUUAAUAUGUUCAUUAUUGAUGUUUUUAUAGU", "RBNS enrichment (R)": 0.826}
{"Strand": "UGGACUGCCAUCUUGGCAGACCUGAACUUUGCUGAGCCUGAUUUUCACAAAGGAGUAGGCCAUGUAGGAGAAAGGGAUAGUGACUUAGUCUUAAGGUGACUAAGAUUCAC", "RBNS enrichment (R)": 0.798}
{"Strand": "CAGCUCUGCCCCUGUGGCUUUGUAGGGUACAGCCUCCCUCCUGGCUGCUUUCACGGCUGUUGUUCAGUGCCUGCGGCUUUUCCAGGUGCACGGUGCAAGCUGUUGGUGGA", "RBNS enrichment (R)": 0.334}
{"Strand": "AUCAGCUCGCCUGGGACUGGCUCUGUGAUAAAAAGACCCCUCCCGCUGGGUUUUCAGACCCCAUGUUGUUGGUCAAUGAAAUAAAGCAUCUUACAGAAGGUGUUAACUGU", "RBNS enrichment (R)": 0.405}
{"Strand": "GACCUAAAACACUUUUUAUGUUUGUUAAAAAUAUUUGCUUUUUAAAAUUUAGUUAAAAAUUGAAGUAUUUCUGUCAUAGACAAAAUUACUCUGUUUUAACAUAUUCCUGG", "RBNS enrichment (R)": 1.73}
{"Strand": "AUCCACUCCAAGCCAUGCUAGGAAUCUGCCCCCUGCCGGGUUCAGCUCUUUAAGGUGCCUCUUCAGGGACACAGUGUGUGUCUGAUUGGGCUUCGCAUCAAAAGCCUGAC", "RBNS enrichment (R)": 0.298}
{"Strand": "UACUCUCACUGUAAUUUAUGGACCCUGCCCGCCUGCGUGUUGUGUGUAUGUCCUGUGCCUUUUCUCACUAUUGUUUGGGUGUGGGAGGGGGUGGUUUUUCACUGAAAAGG", "RBNS enrichment (R)": 4.02}
{"Strand": "AGGGGAGUCAAUUCCUCCAUUUUUCUUUACUAACUUGGGCUUUUCCUUUUGAAUUACUGGGCAGGGAGGUGAGUGGAUGACUUAAUGAUUUCAUGAAUGAAAUAAAGAUU", "RBNS enrichment (R)": 0.358}
{"Strand": "CUGCUUUUGUGACAGUCAGAAAACACACCUGGAAUACGAUGCAGCCCACCAUUAACUCAUUCAUGUAGUUUAUUCAAGUGAUUUAUGUAUUUAAACUAAAUAUUGAAAAU", "RBNS enrichment (R)": 0.662}
{"Strand": "AGUGCCCUAUCCCUGGCAGGCCCCUAGUGGGGGUGUCGUGGCUUUUUUCAGAGUCUAUAAGCAUGCAGCCAUGGGUUGUGAGCUGACCUUGAGACAGGACGGGUCCCACA", "RBNS enrichment (R)": 1.62}
{"Strand": "AUAGCCAACACUAUGACAUAAAAACUUUGUGUUCAAAAUGUACAAUUCACUUUAUACAUUAUUAAUAGUAGAUAAAUUUGUGUAAAAUGUAUCGCUGCUGUCCAGCAUGC", "RBNS enrichment (R)": 3.76}
{"Strand": "CUGUAGUGCACUCCCAGCAGGCCAUGGACUAGUCACUAACCCCACACUCAAAGGGGCAUGGGUGGUGGAGAAGCAGAAGGAGCAAUCAAGCUUAUCUGGAUAUUUCUUUC", "RBNS enrichment (R)": 0.18}
{"data": "Study 5", "target": "Sal-like protein 4, full length isoform A (SALL4, Homo sapiens, UniProt Q9UJQ4, residues 1-1053)", "method": "universal PBM", "form": "double-stranded DNA, one strand shown", "sample": "in vitro", "concentration": "600 nM", "setting": "8-mer, flanks averaged, mean of replicates", "reading": "higher = stronger binding", "UniProt Q9UJQ4, sequence (whole entry, looked up)": "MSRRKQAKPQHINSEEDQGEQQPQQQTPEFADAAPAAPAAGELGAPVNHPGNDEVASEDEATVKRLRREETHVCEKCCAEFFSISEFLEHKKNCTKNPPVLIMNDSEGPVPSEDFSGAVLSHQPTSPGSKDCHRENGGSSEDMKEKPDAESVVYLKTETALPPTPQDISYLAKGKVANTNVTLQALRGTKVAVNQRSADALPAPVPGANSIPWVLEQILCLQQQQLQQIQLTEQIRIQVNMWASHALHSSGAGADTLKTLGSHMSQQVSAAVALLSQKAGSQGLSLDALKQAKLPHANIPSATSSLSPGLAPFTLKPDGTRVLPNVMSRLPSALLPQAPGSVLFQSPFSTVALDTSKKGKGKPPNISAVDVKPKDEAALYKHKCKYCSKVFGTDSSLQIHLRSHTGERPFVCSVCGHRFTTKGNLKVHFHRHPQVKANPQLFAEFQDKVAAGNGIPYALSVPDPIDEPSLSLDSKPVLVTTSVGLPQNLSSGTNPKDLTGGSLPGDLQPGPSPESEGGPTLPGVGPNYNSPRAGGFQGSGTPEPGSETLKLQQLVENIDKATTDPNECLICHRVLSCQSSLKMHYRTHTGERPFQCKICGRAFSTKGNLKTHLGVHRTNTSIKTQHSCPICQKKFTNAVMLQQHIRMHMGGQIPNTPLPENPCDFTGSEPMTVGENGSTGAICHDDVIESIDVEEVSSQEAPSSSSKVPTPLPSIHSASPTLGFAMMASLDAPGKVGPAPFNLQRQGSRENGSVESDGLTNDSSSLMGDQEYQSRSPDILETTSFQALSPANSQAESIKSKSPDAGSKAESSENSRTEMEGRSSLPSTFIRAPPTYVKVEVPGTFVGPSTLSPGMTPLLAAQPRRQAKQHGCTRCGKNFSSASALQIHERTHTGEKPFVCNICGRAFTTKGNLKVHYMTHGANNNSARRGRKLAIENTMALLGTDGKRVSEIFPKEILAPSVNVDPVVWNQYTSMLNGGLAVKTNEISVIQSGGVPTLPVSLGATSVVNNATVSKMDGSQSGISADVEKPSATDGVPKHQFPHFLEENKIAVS"}
{"Strand": "AAGTCGAA", "E-score": -0.00886}
{"Strand": "CATTTCCC", "E-score": 0.0391}
{"Strand": "ATCATTTG", "E-score": 0.22}
{"Strand": "GCCGCGGC", "E-score": -0.173}
{"Strand": "GTAACGTA", "E-score": 0.12}
{"Strand": "ACGGCAGG", "E-score": -0.413}
{"Strand": "AAGTTGAG", "E-score": -0.00954}
{"Strand": "GCATCACA", "E-score": 0.00643}
{"Strand": "AGCTACCG", "E-score": -0.264}
{"Strand": "AAAACGAC", "E-score": 0.0576}
{"Strand": "ACCACTAA", "E-score": 0.108}
{"Strand": "TGGTGAAA", "E-score": 0.0336}
{"Strand": "GGGGCGTA", "E-score": -0.202}
{"Strand": "GTGACCAC", "E-score": -0.268}
{"Strand": "AATATTTC", "E-score": 0.445}
{"Strand": "CAAGGAAC", "E-score": -0.144}
{"Strand": "GCTCCACA", "E-score": -0.251}
{"Strand": "CTGGTTCA", "E-score": -0.0598}
{"Strand": "ACATAAGT", "E-score": 0.275}
{"Strand": "ATTTGGTA", "E-score": 0.219}
{"Strand": "GACAAACA", "E-score": -0.0762}
{"Strand": "CAACGAAA", "E-score": 0.131}
{"note": "A few entries again (study 4):"}
{"Strand": "CAGCUCUGCCCCUGUGGCUUUGUAGGGUACAGCCUCCCUCCUGGCUGCUUUCACGGCUGUUGUUCAGUGCCUGCGGCUUUUCCAGGUGCACGGUGCAAGCUGUUGGUGGA", "RBNS enrichment (R)": 0.334}
{"Strand": "AUCAGCUCGCCUGGGACUGGCUCUGUGAUAAAAAGACCCCUCCCGCUGGGUUUUCAGACCCCAUGUUGUUGGUCAAUGAAAUAAAGCAUCUUACAGAAGGUGUUAACUGU", "RBNS enrichment (R)": 0.405}
{"Strand": "GACCUAAAACACUUUUUAUGUUUGUUAAAAAUAUUUGCUUUUUAAAAUUUAGUUAAAAAUUGAAGUAUUUCUGUCAUAGACAAAAUUACUCUGUUUUAACAUAUUCCUGG", "RBNS enrichment (R)": 1.73}
{"Strand": "AUCCACUCCAAGCCAUGCUAGGAAUCUGCCCCCUGCCGGGUUCAGCUCUUUAAGGUGCCUCUUCAGGGACACAGUGUGUGUCUGAUUGGGCUUCGCAUCAAAAGCCUGAC", "RBNS enrichment (R)": 0.298}
{"Strand": "UACUCUCACUGUAAUUUAUGGACCCUGCCCGCCUGCGUGUUGUGUGUAUGUCCUGUGCCUUUUCUCACUAUUGUUUGGGUGUGGGAGGGGGUGGUUUUUCACUGAAAAGG", "RBNS enrichment (R)": 4.02}
{"Strand": "AGGGGAGUCAAUUCCUCCAUUUUUCUUUACUAACUUGGGCUUUUCCUUUUGAAUUACUGGGCAGGGAGGUGAGUGGAUGACUUAAUGAUUUCAUGAAUGAAAUAAAGAUU", "RBNS enrichment (R)": 0.358}
{"Strand": "CUGCUUUUGUGACAGUCAGAAAACACACCUGGAAUACGAUGCAGCCCACCAUUAACUCAUUCAUGUAGUUUAUUCAAGUGAUUUAUGUAUUUAAACUAAAUAUUGAAAAU", "RBNS enrichment (R)": 0.662}
{"Strand": "AGUGCCCUAUCCCUGGCAGGCCCCUAGUGGGGGUGUCGUGGCUUUUUUCAGAGUCUAUAAGCAUGCAGCCAUGGGUUGUGAGCUGACCUUGAGACAGGACGGGUCCCACA", "RBNS enrichment (R)": 1.62}
